Assay results collected from several papers.
Compare with care: the assays were run in different laboratories. Numbers after ± are the reported error.
Chain of UniProt Q00535 (whole entry, looked up): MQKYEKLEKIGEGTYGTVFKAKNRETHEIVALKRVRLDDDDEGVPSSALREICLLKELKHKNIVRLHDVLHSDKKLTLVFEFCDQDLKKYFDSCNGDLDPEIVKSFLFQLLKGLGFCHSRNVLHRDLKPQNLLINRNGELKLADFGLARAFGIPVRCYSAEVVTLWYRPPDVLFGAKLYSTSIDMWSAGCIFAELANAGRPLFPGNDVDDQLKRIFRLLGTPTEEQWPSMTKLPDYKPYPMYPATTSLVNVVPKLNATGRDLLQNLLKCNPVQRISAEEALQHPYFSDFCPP

SMILES	tested on	test	test system	setting	scale	endpoint	value
Cc1nn(-c2cccc(N)c2)c(=O)c2cnc(Nc3ccc(N4CCNCC4)cc3)nc12	Cyclin-dependent kinase 5, with p25 (CDK5, Homo sapiens, UniProt Q00535)	enzyme activity, inhibitor				IC50	2.19 µM
C[C@H](c1ccc(Br)cc1)N1C(=O)C2=Nc3ccccc3CN2C1=S	CEM/ADR5000 (P-gp overexpressing, multidrug resistant)	cell viability, resazurin		72 h		IC50	0.532 ± 0.09 µM
C=CC(=O)Nc1cccc(Cn2ncc3cnc(Nc4cnn(CCOC)c4)nc32)c1	HASPIN human	binding, KINOMEscan		100 nM	lower = stronger binding	percent of control	74%
Nc1ncc(-c2cc(-c3cnn(CC(F)(F)F)c3)ncc2F)nc1C(=O)NC1CNCC(F)C1 (stereo not shown)	PCTK1	KINOMEscan		1 µM	reference: DMSO control	remaining binding	51%
C[C@H](c1ccccc1)N1C(=O)C2=Nc3cccc(Cl)c3CN2C1=S	CEM/ADR5000 (P-gp overexpressing, multidrug resistant)	cell viability, resazurin		72 h		IC50	0.146 ± 0.015 µM
O=C1C(Cl)=C(Cl)C(=O)c2c1cccc2[N+](=O)[O-]	HuCC-A1	cell growth or viability, MTT				IC50	112 µM
COC1CN([C@H]2CC[C@H]([C@@]3(C)Oc4c(Cl)cc(C(=O)NCc5c(SC)cc(C)[nH]c5=O)c(C)c4O3)CC2)C1		RNA-seq, refers to: SPATA7 mouse homolog	mouse, HT-1376 xenograft, whole blood	dose not given	reference: vehicle	log2 fold change	0.803
CC(C)c1ccc(N(C)c2ccc3c(c2)OCC[C@H]3CNc2cnccc2C(=O)O)cc1	NCI-H716	cell growth or viability, ATP luminescence		7 days		IC50	0.00951 µM
COC(=O)N1c2ccc3c(nc(Cc4ccccc4)n3[C@@H]3CCC[C@@H](C(=O)O)C3)c2CC[C@@H]1C	ZR-75-1	cell growth or viability, ATP luminescence		10 days		IC50	2.2 µM
CCOc1cncc(-c2ccc(NC(=O)C3(c4ccnc(NS(=O)(=O)C5CC5)n4)CCOCC3)nc2)n1	BT-474	cell growth or viability, ATP luminescence		72 h		IC50	10 µM
Cc1ncsc1-c1ccc(C(C)NC(=O)C2CC(O)CN2C(=O)C(NC(=O)CCCCCCCCCCN2CCCC(Nc3ncc(Cl)c(Nc4ccccc4S(=O)(=O)C(C)C)n3)C2)C(C)(C)C)cc1 (stereo not shown)	22Rv1	RNA-seq, refers to: ZBTB42 mRNA		concentration not given	reference: DMSO	log2 fold change	-2.24
C=C(C)C(=O)NCCCCOCc1cn(CCCCNC(=O)C(=C)C)n[n+]1C	L929	viability, alamarBlue		3 days		IC50	> 50 µM
CN1CCCNC(=O)c2cccc(c2)C(=O)NCCCN(C)CCCNc2cccc3c2C(=O)c2cccc(c2C3=O)NCCC1	SAS	RNA-Seq, refers to: JAGN1 mRNA		1 µM, 6 h	reference: untreated cells	log2 fold change	0.442
COc1ccc2c(c1)/C(=N/NC(N)=S)C(=O)N2CCn1cnc2c(N)ncnc21	BALB/3T3 clone A31	cell growth or viability, SRB		72 h		IC50	23.3 mg/L
C=CS(=O)(=O)NCCCCCCCCCCOCc1cn(CCCCCCCCCCNS(=O)(=O)C=C)n[n+]1C	L929	cell growth or viability		72 h		IC50	16.4 µM
CC(C)=CCc1cc(C(=O)/C=C/c2ccc(O)cc2)c(O)cc1O		phase I metabolism	mouse liver microsomes			substrate inhibition constant Ki	34.3 ± 5.68 µM
CC(C)OCCOCc1ccc(OCC(O)CN(N=O)C(C)C)cc1 (stereo not shown)	Salmonella typhimurium	Ames test	TA98	15.8 µg/plate, without metabolic activation	reference: solvent control	revertant fold increase	0.9 fold
C=CC(=O)NCCCCCCCCOCc1cn(CCCCCCCCNC(=O)C=C)n[n+]1C	L929	viability, alamarBlue		3 days		IC50	> 50 µM
O=S(=O)(N[C@H]1CCC[C@@H](N2c3ccccc3CCc3ccccc32)[C@@H]1O)c1ccc(OC(F)(F)F)cc1	T98G	cell growth or viability		72 h		IC50	7.1 µM
C=CC(=O)NCCCCCCCCOCc1cn(CCCCCCCCNC(=O)C=C)nn1	L929	viability, alamarBlue		3 days		IC50	> 50 µM
CC(=O)O[C@H]1OC[C@@H]2C=C([C@]3(C)CCCC(C)(C)C3)CC[C@H]12	human T-lymphocyte	cell growth or viability, MTT		48 h		IC50	4 µM
Cn1ncc(-c2ccc3c(=O)[nH]nc(CN)c3c2)c1-c1c(F)c(Cl)cc(OC2CC2)c1C#N	WM-266-4	cell viability, inhibitor, CellTiter-Glo		120 h		IC50	1.92 µM
CNS(=O)(=O)Nc1nccc(Cc2c(C)c3ccc(Oc4ncccc4F)cc3oc2=O)c1F	A498	cell viability		7 days		IC50	> 1 µM
C[C@H](c1ccccc1)N1C(=O)C2=Nc3ccc(Cl)cc3CN2C1=S	CEM/ADR5000 (P-gp overexpressing, multidrug resistant)	cell viability, resazurin		72 h		IC50	0.295 ± 0.083 µM
C=CC(=O)N1CCCC(n2c(=O)c3ncccc3n(Cc3ccc(Oc4ccccc4)cc3)c2=O)C1 (stereo not shown)	KM-H2	cell growth or viability, MTT		72 h		IC50	2.5 µM

Repeated from above:
SMILES	tested on	test	test system	setting	scale	endpoint	value
C=CC(=O)NCCCCCCCCOCc1cn(CCCCCCCCNC(=O)C=C)n[n+]1C	L929	viability, alamarBlue		3 days		IC50	> 50 µM
CCOc1cncc(-c2ccc(NC(=O)C3(c4ccnc(NS(=O)(=O)C5CC5)n4)CCOCC3)nc2)n1	BT-474	cell growth or viability, ATP luminescence		72 h		IC50	10 µM
O=C1C(Cl)=C(Cl)C(=O)c2c1cccc2[N+](=O)[O-]	HuCC-A1	cell growth or viability, MTT				IC50	112 µM
C[C@H](c1ccc(Br)cc1)N1C(=O)C2=Nc3ccccc3CN2C1=S	CEM/ADR5000 (P-gp overexpressing, multidrug resistant)	cell viability, resazurin		72 h		IC50	0.532 ± 0.09 µM
